Results of several laboratories.
Compare with care: the assays were run in different laboratories. ± marks the error that the study gave.
TDP1: Tyrosyl-DNA phosphodiesterase 1 (TDP1, Homo sapiens, UniProt Q9NUW8)
Sequence of UniProt Q9NUW8 (whole entry, looked up): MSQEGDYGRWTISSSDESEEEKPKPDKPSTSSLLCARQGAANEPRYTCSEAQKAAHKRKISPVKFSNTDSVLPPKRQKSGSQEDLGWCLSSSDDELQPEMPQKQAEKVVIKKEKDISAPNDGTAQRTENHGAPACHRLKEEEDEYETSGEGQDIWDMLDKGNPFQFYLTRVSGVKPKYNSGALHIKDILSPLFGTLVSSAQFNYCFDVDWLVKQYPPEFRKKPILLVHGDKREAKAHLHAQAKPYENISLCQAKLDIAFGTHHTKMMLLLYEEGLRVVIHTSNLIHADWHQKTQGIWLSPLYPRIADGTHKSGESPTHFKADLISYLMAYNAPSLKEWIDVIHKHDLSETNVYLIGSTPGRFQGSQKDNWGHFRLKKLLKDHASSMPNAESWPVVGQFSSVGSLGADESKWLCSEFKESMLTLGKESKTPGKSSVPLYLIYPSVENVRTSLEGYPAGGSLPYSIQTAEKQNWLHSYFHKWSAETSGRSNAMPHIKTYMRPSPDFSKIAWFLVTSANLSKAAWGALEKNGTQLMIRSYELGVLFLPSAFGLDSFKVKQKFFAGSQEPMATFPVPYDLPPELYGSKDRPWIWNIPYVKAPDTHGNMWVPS
MAPK14: Mitogen-activated protein kinase 14 (MAPK14, Homo sapiens, UniProt Q16539)
Sequence of UniProt Q16539 (whole entry, looked up): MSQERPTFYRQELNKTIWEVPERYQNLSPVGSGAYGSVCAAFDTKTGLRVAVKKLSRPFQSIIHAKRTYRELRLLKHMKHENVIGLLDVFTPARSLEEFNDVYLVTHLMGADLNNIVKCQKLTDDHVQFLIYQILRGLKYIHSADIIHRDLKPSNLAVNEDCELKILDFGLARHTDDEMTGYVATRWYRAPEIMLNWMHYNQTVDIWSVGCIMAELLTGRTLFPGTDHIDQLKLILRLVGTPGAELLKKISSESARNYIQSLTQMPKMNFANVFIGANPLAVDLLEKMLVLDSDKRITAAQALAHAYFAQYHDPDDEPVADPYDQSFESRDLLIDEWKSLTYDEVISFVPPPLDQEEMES
ABCC1: Multidrug resistance-associated protein 1 (ABCC1, Homo sapiens, UniProt P33527)
Sequence of UniProt P33527 (whole entry, looked up): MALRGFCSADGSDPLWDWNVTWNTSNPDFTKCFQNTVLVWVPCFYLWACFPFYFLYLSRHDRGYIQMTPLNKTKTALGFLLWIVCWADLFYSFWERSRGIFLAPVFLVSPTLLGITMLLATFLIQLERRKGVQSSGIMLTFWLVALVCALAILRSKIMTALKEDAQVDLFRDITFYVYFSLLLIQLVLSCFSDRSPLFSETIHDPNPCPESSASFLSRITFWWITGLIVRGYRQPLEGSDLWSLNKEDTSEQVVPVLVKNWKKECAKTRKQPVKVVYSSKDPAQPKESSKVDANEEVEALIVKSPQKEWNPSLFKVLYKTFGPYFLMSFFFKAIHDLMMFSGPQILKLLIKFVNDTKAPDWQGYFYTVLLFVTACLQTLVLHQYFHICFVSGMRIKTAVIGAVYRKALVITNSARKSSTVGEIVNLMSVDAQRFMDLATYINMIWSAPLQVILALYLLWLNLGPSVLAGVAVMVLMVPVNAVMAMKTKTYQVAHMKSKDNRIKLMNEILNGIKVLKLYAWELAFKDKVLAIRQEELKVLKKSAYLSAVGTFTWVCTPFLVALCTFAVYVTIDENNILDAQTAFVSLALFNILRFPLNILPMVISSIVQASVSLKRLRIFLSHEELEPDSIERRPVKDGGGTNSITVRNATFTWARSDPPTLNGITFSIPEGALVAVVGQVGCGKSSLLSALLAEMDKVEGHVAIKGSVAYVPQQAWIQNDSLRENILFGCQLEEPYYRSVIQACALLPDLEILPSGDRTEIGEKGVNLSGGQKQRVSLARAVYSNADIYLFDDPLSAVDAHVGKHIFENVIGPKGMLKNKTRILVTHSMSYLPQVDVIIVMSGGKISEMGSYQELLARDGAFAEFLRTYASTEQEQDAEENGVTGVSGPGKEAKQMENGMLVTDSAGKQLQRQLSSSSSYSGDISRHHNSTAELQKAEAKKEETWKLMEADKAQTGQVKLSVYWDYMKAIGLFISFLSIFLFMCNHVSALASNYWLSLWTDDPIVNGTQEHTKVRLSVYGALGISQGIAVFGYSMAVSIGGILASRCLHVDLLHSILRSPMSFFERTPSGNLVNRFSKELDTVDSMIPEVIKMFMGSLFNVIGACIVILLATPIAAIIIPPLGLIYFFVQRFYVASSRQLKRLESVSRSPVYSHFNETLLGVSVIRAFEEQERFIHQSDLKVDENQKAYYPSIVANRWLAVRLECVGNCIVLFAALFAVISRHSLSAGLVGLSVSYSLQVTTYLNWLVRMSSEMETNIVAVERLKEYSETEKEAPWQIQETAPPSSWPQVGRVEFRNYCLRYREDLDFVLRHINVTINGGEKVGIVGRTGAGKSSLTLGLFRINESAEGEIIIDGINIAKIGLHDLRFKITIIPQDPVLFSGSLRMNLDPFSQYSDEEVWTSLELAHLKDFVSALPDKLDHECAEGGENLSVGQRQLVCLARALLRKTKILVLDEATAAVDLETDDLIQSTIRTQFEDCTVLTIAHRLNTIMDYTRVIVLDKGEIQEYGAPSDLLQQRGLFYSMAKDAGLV
DPP4: Dipeptidyl peptidase 4 (DPP4, Sus scrofa, UniProt P22411)
Sequence of UniProt P22411 (whole entry, looked up): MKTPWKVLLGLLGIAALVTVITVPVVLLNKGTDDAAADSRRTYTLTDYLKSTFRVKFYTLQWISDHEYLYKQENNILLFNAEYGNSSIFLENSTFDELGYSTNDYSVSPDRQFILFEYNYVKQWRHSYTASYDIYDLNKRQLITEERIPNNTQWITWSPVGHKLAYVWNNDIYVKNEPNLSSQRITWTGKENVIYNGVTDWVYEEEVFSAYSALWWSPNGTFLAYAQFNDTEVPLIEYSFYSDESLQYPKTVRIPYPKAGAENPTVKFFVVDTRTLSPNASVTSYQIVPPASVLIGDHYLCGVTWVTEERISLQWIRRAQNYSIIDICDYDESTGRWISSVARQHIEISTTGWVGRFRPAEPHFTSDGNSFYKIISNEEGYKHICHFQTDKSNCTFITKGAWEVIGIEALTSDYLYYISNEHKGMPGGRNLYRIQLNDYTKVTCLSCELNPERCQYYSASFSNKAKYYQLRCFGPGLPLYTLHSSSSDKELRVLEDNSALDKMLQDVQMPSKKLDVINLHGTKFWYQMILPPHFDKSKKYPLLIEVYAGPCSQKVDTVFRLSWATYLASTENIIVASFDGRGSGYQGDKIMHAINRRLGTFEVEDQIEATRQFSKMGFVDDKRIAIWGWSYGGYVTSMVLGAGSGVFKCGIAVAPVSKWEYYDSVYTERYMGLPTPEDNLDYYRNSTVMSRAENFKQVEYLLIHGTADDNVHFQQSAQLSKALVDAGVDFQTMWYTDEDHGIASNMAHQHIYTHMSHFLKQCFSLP
Seed linoleate 13S-lipoxygenase-1: Seed linoleate 13S-lipoxygenase-1 (Glycine max, UniProt P08170)
Sequence of UniProt P08170 (whole entry, looked up): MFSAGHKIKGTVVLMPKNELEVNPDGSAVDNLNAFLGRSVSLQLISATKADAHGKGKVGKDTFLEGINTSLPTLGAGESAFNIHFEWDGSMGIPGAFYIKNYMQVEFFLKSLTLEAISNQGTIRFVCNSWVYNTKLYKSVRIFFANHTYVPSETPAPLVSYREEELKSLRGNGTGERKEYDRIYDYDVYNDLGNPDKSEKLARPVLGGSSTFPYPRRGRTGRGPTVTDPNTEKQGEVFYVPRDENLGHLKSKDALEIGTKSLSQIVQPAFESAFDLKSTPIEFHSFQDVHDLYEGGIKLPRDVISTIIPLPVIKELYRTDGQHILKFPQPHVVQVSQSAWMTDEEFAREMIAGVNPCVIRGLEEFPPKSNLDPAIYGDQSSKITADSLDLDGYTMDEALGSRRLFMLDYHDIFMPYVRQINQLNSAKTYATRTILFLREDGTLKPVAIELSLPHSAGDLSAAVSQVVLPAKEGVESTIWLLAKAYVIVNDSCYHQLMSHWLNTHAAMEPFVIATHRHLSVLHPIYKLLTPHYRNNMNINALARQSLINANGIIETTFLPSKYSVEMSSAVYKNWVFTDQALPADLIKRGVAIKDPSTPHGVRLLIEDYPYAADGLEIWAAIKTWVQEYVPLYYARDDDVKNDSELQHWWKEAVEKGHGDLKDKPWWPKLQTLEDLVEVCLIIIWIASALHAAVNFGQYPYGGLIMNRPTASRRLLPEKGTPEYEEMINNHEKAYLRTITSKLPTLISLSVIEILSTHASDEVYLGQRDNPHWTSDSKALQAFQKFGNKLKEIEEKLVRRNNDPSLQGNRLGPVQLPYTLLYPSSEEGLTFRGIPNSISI
AVPR1A: Vasopressin V1a receptor (AVPR1A, Homo sapiens, UniProt P37288)
Sequence of UniProt P37288 (whole entry, looked up): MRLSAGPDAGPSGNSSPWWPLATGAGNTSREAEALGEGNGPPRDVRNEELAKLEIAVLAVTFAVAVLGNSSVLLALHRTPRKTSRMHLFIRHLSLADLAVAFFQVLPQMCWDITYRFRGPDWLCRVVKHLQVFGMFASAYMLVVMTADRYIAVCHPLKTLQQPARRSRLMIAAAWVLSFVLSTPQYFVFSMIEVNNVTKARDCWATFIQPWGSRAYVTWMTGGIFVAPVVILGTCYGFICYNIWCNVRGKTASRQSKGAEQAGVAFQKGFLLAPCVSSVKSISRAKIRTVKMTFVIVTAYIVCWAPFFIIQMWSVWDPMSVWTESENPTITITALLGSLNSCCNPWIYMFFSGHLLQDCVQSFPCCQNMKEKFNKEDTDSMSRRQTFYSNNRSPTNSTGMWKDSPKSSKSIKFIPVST
Sequence of UniProt P61073 (whole entry, looked up): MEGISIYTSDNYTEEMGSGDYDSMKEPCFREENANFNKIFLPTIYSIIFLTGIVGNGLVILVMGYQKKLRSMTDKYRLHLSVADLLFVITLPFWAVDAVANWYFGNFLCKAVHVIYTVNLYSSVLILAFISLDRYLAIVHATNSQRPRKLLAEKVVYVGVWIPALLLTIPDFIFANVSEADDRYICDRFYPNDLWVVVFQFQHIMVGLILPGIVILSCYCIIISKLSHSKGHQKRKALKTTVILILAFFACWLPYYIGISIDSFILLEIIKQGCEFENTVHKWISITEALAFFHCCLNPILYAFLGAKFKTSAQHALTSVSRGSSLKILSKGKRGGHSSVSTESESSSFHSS

Structure (SMILES)	target	assay	test system	conditions	scale	inhibition
Cc1cc(O)c2c(c1)C(=O)c1cc3oc(=O)cc(-c4ccc(O)cc4)c3c(O)c1C2=O	mushroom tyrosinase	enzyme activity		100 µg/mL, added: L-DOPA		31.33 ± 0.17%
O=C(O)c1ccc(Nc2c(-c3ccc(CON=Cc4ccc(N5CCCC5=O)cc4)cc3)nc3cc(-c4ccccc4)ccn23)cc1	TDP1	enzyme activity		100 µM, primary screen		> 90%
COc1cc(C(=O)NC2CCC(N3CCN(CC4CCC5(CCCC5)C4)CC3)CC2)c(F)cc1Nc1ncc2c(n1)N(C1CCCC1(F)F)CC(F)(F)C(=O)N2C (stereo not drawn)	Ephrin type-A receptor 4 (EPHA4, Homo sapiens, UniProt P54764)	cell-free assay, TR-FRET		10 µM		0.45%
O=C1c2ccccc2C(=O)c2c1ccc1c2C(C(=O)Nc2ccc(Br)cc2)C(=O)C1c1ccccc1 (stereo not drawn)	mushroom tyrosinase	enzyme activity, inhibitor, spectrophotometry		100 µg/mL, added: L-DOPA substrate		75 ± 1.36%
c1ccc(CNc2cnccn2)cc1	MAPK14	primary fragment screen		1 mM, added: ATP 10 µM		55.4%
COc1cc(OC)c2c(c1)C(=O)c1cc3oc(=O)cc(-c4ccc(Cl)cc4)c3c(O)c1C2=O	mushroom tyrosinase	enzyme activity		50 µg/mL, added: L-DOPA		36.14 ± 0.32%
COc1cccc(CCn2c3c(c4c2-c2ccccc2C4=O)C(=O)CCC3)c1	ABCC1	calcein efflux	HEK293 expressing MRP1	2 µM	reference: verapamil 35 µM as 100%	inhibited
COc1cc(OC)c(C(=O)CCc2ccccc2)c(O)c1O	DPP4	enzyme activity, inhibitor, absorbance		50 µg/mL		23.7%
O=C1c2ccccc2C(=O)c2c1ccc1c2C(C(=O)Nc2ccc(Cl)cc2)C(=O)C1c1ccccc1 (stereo not drawn)	mushroom tyrosinase	enzyme activity, inhibitor, spectrophotometry		50 µg/mL, added: L-DOPA substrate		28.1 ± 0.8%
Nc1nc(Nc2ccccc2)nc2ccccc12	MAPK14	primary fragment screen		0.25 mM, added: ATP 10 µM		81.3%
Cc1cc(O)cc2c1C(=O)c1c(cc3oc(=O)cc(-c4ccccc4)c3c1O)C2=O	mushroom tyrosinase	enzyme activity		100 µg/mL, added: L-DOPA		48.19 ± 0.36%
CCn1c(SC(C)C(=O)Nc2cccc(C)c2C)nnc1C1CCN(C(=O)Nc2ccccc2)CC1 (stereo not drawn)	Seed linoleate 13S-lipoxygenase-1	enzyme activity, inhibitor		250 µM		89.7%
COc1cc(/C=C/C(=O)c2ccc3c(c2)OCO3)ccc1OCc1ccccc1	ABCC1	calcein efflux, flow cytometry		10 µM		no inhibition
CC[C@H](C)[C@H](NC(=O)[C@@H]1CSSC[C@H](NC(=O)[C@H](Cc2ccc(O)cc2)NC(=O)CN)C(=O)N[C@@H](CO)C(=O)N[C@@H](CCCNC(=N)N)C(=O)N[C@@H](CO)C(=O)N[C@@H](Cc2ccc(O)cc2)C(=O)N2CCC[C@H]2C(=O)N2CCC[C@H]2C(=O)N[C@@H](C(C)C)C(=O)N1)C(=O)N1CCC[C@H]1C(=O)N[C@@H](CC(=O)O)C(N)=O	Mannan-binding lectin serine protease 1 (Homo sapiens, UniProt P48740)	enzyme activity, inhibitor		15 µM, added: 10 nM MASP-1		27%
Cc1cc(O)cc2c1C(=O)c1c(cc3oc(=O)cc(-c4ccc(Cl)cc4)c3c1O)C2=O	mushroom tyrosinase	enzyme activity		25 µg/mL, added: L-DOPA		26.3 ± 0.31%
Nc1nc2cc(CC[C@H]3C[C@@H](n4ccc5c(N)ncnc54)[C@H](O)[C@@H]3O)ccc2cc1Br	lysine methyltransferases, human	enzyme activity, inhibitor		10 µM		≤ 15%
NCCCC[C@H](NC(=O)[C@@H]1CCCN1C(=O)[C@@H]1CSSCCC(=O)N[C@@H](Cc2ccc(O)cc2)C(=O)N[C@@H](Cc2ccccc2)C(=O)N[C@@H](CCCC(N)=O)C(=O)N[C@@H](CC(N)=O)C(=O)N1)C(=O)NCC(N)=O	AVPR1A	ligand displacement, radioligand		10 µM		> 50%

Structure (SMILES)	target	assay	test system	conditions	scale	inhibition
NCCC(=O)N[C@@H](Cc1c[nH]c2ccc(O)cc12)C(=O)N[C@@H](Cc1ccc(Cl)cc1)C(=O)N[C@@H](Cc1ccncc1)C(N)=O	EphA3 receptor	ephrin-A5 binding, ELISA		500 µM		25%
Cc1c2c(cc3oc(=O)cc(-c4ccc(O)cc4)c13)C(=O)c1cccc(O)c1C2=O	mushroom tyrosinase	enzyme activity		100 µg/mL, added: L-DOPA		44.6 ± 0.63%
O=C(O)c1ccc(Nc2c(-c3ccc(CON=Cc4ccc(-c5ccccc5)cc4)cc3)nc3cc(-c4ccccc4)ccn23)cc1	TDP1	enzyme activity, inhibitor		100 µM		36%
Cc1c2c(cc3oc(=O)cc(-c4ccc(Cl)cc4)c13)C(=O)c1cccc(O)c1C2=O	mushroom tyrosinase	enzyme activity		50 µg/mL, added: L-DOPA		51.81 ± 0.19%
COc1ccc(NC(=O)C2C(=O)C(c3ccccc3)c3ccc4c(c32)C(=O)c2ccccc2C4=O)cc1 (stereo not drawn)	mushroom tyrosinase	enzyme activity, inhibitor, spectrophotometry		100 µg/mL, added: L-DOPA substrate		51.6 ± 1.06%
Cc1c2c(cc3oc(=O)cc(-c4ccccc4)c13)C(=O)c1cccc(O)c1C2=O	mushroom tyrosinase	enzyme activity		100 µg/mL, added: L-DOPA		63.86 ± 0.45%
C=CC(=O)Nc1cccc(-c2cnc3[nH]cc(C(=O)NC(C)(C)C)c3n2)c1	Tyrosine-protein kinase JAK2 (JAK2, Homo sapiens, UniProt O60674)	enzyme activity, inhibitor		0.1 µM		> 90%
COc1cc(Oc2c(O)c(Cl)c(C)c(Cl)c2OC)c(C(=O)O)c(C)c1O	Gag-Pol polyprotein, reverse transcriptase (gag-pol, Human immunodeficiency virus 1, UniProt P03366)	enzyme activity, inhibitor, PicoGreen fluorescence		10 µM		9.7 ± 0.8%
CC(C)c1csc2nc[nH]c(=O)c12	MAPK14	primary fragment screen		1 mM, added: ATP 10 µM		58.9%
Cc1cc2c(c(O)c1O)C(=O)c1c(O)cc(O)cc1C2=O	AVPR1A	intracellular calcium, antagonist	CHO	12.5 µM, added: vasopressin 10 nM		> 50%
COc1cc(O)c2c(=O)cc(-c3ccccc3)oc2c1	DPP4	enzyme activity, inhibitor, absorbance		50 µg/mL		26.1%
CCn1c(SC(C)C(=O)Nc2ccc(C)c(C)c2)nnc1C1CCN(C(=O)Nc2ccccc2)CC1 (stereo not drawn)	Seed linoleate 13S-lipoxygenase-1	enzyme activity, inhibitor		250 µM		88.5%
CN(C)c1nccc(CN(C)S(=O)(=O)Cc2cccc3cccnc23)n1	C-X-C chemokine receptor type 4 (CXCR4, Homo sapiens, UniProt P61073)	β-arrestin recruitment		10 µM		> 50%
Cc1cc(O)c2c(c1)C(=O)c1cc3oc(=O)cc(-c4ccc(Cl)cc4)c3c(O)c1C2=O	mushroom tyrosinase	enzyme activity		25 µg/mL, added: L-DOPA		13.2 ± 0.46%
CNc1cncc(-c2ccc(OC)c(OC)c2)n1	MAPK14	primary fragment screen		0.25 mM, added: ATP 10 µM		41.8%
C=CC(=O)N1C[C@H](C)N(c2nc(OC[C@@]34CCCN3C[C@H](F)C4)nc3c(F)c(-c4ccc(F)c5sc(N)c(C#N)c45)c(C(F)(F)F)cc23)C[C@H]1C	Cyclin-dependent kinase 19 (CDK19, Homo sapiens, UniProt Q9BWU1)	binding, KINOMEscan		1 µM		87%
